Measurements from different studies.
Parts stem from different laboratories: compare values within a part only.

Sample 1
Target: Histone acetyltransferase KAT6A, winged helix 2, GST fusion (KAT6A, Homo sapiens, UniProt Q92794, residues 85-181)
Method: protein binding microarray
Molecule type: double-stranded DNA, one strand shown
Medium: in vitro
Tested at: not given
Notes: 8-mer, flanks averaged, mean of 2 arrays, mostly near background
Reference: not given
Direction: higher = stronger binding
Endpoint: E-score
Residues (chain): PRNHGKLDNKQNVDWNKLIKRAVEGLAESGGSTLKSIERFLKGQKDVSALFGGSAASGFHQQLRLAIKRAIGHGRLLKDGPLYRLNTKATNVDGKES
CATCGTCC: 0.0196
AATCAAGA: -0.0783
AGAGAAGG: 0.0105
ACGTGGAT: -0.195
CGATCAGC: 0.133
GCACACAA: 0.0572
CCGATTGA: -0.0578
TCCGCCAA: 0.104
AGTGGCGG: 0.122
ACTGCCTA: -0.0926
AAATATGG: -0.26
ATCCAAGA: 0.128
CGCCAGAG: 0.15
AATGAGGC: 0.0486
TAAATAAA: 0.0325
AGAGGAGC: 0.00681
GAGCGGCA: 0.0296
TATCTCCA: 0.127
ATTTGCCA: -0.0921
AAGCAACC: 0.125
AGGGACTG: -0.21
CCATCGCC: 0.0602
GCTAACAA: 0.0294
CTTAGAAC: 0.0774
CGAGCCCG: 0.0258

Sample 2
Target: Interferon regulatory factor 3, full length, phosphomimetic (IRF3, Homo sapiens, UniProt Q14653, residues 1-427, S386D/S396D/S398D/S402D/T404D/S405D)
Method: protein-binding microarray
Molecule type: double-stranded DNA, one strand shown
Medium: in vitro
Tested at: 2540 nM top
Notes: 60-bp whole probe
With: salmon DNA 0.4 mg/ml
Reference: random background probes
Direction: higher = stronger binding
Endpoint: fitted relative affinity
Constant ends, left off below: GCCTAGCAC … GTCTTGATTCGCTTGACGCTGCTG
Target sequence (chain): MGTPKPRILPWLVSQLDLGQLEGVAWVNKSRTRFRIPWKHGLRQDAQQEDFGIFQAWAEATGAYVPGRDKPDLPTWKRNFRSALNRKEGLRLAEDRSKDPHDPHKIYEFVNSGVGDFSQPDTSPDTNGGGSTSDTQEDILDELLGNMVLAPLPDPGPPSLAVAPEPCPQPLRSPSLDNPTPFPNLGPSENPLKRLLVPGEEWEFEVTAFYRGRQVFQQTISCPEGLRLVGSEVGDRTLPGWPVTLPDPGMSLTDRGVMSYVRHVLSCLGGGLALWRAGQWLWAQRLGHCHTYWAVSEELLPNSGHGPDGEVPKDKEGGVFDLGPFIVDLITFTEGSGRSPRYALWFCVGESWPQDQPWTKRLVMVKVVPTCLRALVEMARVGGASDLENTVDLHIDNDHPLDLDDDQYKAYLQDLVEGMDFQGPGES
TCACGTATCTTCATTGTACTGTGCTAG: 0.0971 z-score
GACGGTTACCTTATCCTGACGTGCTAG: 3.97 z-score
TTAGATTTCGGGTTTCGTTTAGTGCTA: 3.73 z-score
TTAGGACTGCTTCCCCTTTAGTGCTAG: 0.723 z-score
GACCGACTGGGACTGGGGACGTGCTAG: -0.418 z-score
GACGAACTGGGGTATCGAGTCGTGCTA: -0.281 z-score
GACGGTATCGGTATCCGGACGTGCTAG: 5.05 z-score
TCATCTTTCCCTGCCCCACTGTGCTAG: 1.67 z-score
GACGGTATCGACACTGGTGACGTGCTA: 0.563 z-score
TCAGTCTTCCCCATCTTACTGTGCTAG: 1.43 z-score
GACGGTTTCGGTTCCGGGACGTGCTAG: 10.2 z-score
GACGATTTCAGTTTGGAGACGTGCTAG: 2.05 z-score
GGAGTGGGAAGCTTCGCTCCGTGCTAG: -0.498 z-score
TTAGAACTTAGTCTCGATTAGTGCTAG: 0.0217 z-score
GACGATCTTAGTTTCGAGACGTGCTAG: 2.5 z-score
TCATTTTTTTTTTTCTGACTGTGCTAG: 1.44 z-score
GAAGATTTCAGACTGGAGACGTGCTAG: 0.391 z-score

Sample 3
Target: Hepatocyte nuclear factor 3-alpha (Foxa1, Mus musculus, UniProt P35582, residues 1-468, full length assumed)
Method: EMSA with sequencing
Molecule type: double-stranded DNA, one strand shown
Medium: in vitro
Tested at: 10 and 20 nM
Notes: whole designed probe, mean of two concentrations, ends assumed
Reference: negative control set to 0
Direction: higher = stronger binding
Endpoint: normalised bound fraction
Constant ends, left off below: GTGAGCGGTGCCCATTGATGGGGAAC … TTTCACTGGGATCGTGGGGAC
Construct (chain): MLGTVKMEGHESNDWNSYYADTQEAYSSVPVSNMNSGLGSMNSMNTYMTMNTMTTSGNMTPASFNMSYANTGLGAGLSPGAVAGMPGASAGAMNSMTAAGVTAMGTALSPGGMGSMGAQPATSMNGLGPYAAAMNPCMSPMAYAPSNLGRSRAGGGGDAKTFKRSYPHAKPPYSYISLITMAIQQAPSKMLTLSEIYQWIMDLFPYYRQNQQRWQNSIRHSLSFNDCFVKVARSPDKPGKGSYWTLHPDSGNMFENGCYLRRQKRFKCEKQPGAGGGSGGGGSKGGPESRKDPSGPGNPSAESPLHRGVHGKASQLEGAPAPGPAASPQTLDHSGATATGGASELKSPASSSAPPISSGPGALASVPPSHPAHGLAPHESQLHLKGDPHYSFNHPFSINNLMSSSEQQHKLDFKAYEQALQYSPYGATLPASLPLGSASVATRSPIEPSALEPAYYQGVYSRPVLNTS
AGACACCATTTCGAACAAAACAAAACAGTTGCTCCCTTCCCTCTTGTTCCTCCCACTATTGCTGTCATTGCAAGCTCCTAGGAGCTGCCCTGTTATTTACATTGCAGTGGGCATGACTCAGGGAAGCAGCAGGCAGGGAGGAGGATGGGAAGCAAGAACCCAGCTGGGGCTAAGCAAGGTCCAGCTCATAATA: 0.403 ratio
TTTTTTAATAAGAGGGACACTCAGTGAAATTTTTGCGTGAAAATAAGATAAAGTTCTATTGTTCAGCTTTTAATGATAGCATGGAATTCTAAGTAATCTTGGATGAAATACAACTTGTCAGCACAAAAATACTGCCTGTCATAGTCATTTGTGTATAAAATATGACCCGCAGGTTTGAACCATATGGTTACAT: -0.0514 ratio
ATCTTCCCCCTCTTCCTTGCCCCACCAGCTCACCTTCCCGGGTTGTTTACTTTGAGCAAAGTAAACAAAGCCGGCATTCGTTAACCCTCTTCACGCGCATACTGCTGTTTGCTCTGGATCTAACATGGTCCTTTGGCGACGCCAGGCTCCGGGAGAGCAAAGCACCGTGTCAGGGCCATGATCCGGGGTGGCC: 0.535 ratio
ATCTTCCCCCTCTTCCTTGCCCCACCAGCTCACCTTCCCGGGTTATTTGCAGATAGGAAAATAAATAAAGCCGGCATTCGTTAACCCTCTTCTGGCGCAAACTGCTGTTTACTTTGGATCTAACATGGTCCTTTGGCGACGCCAGGCTCCGGGAGAGCAAAGCACCGTGTCAGGGCCATGATCCGGGGTGGCC: 0.427 ratio
AAAACAAACAAATAAAACAACTAGTATGGAAGCTAGAATAATGTGATGCACCATTACACCAAATATTCAGTCTTAACATGGTTTTTAATATTATGTAAACATGGAAGGTATTGCCATTGTTCATATGATACAGAATCAATGGCACTCACAAGCATCTGAATATGTTGAAAAATGGCACCTTCAAATAAAAATT: 0.535 ratio

Sample 4
Target: RNA binding protein fox-1 homolog 2, RRM domain, GST-SBP tag (RBFOX2, Homo sapiens, UniProt O43251-10, residues 100-194)
Method: RNA Bind-n-Seq
Molecule type: RNA
Medium: in vitro
Tested at: 365 nM
Notes: natural RNA segment, single round, ends assumed
Reference: no-protein control
Direction: higher = stronger binding
Endpoint: RBNS enrichment (R)
Constant ends, left off below: GGGAGUUCUACAGUCCGACGAUC … UGGAAUUCUCGGGUGCCAA
Target sequence (chain): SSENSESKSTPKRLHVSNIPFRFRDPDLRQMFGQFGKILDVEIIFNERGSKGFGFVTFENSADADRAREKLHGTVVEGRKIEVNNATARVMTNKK
AUAUCAUGGUGCCUACUGGAAGGGAAUGUAGAUGCUAUGCAUUUUGGAAAUAAUCUGCAUCUGUUAAACCUGCAGAAGUUUUUUAAUGCCACUUUAACACUAAUGCACUG: 0.661
UCUAUGUUACCCAUCUGUGUCUCCUGUGCAGAAGGAGAGGAAGGGGCAUUAAGAGAUGAAGGGUGAUUAUGUAUUACUUAUCCAUUUCUGAAUAAACAUUUGUUAUUCCU: 0.633
UCAGCCCUCUCUCUUGUUCCCUUUCUGAGCAUGUGGUCCUUCCCCAGGCUGUGGGACAGCUGCCUUCCCACGAAAGUGUAAAGCAGUAUUAAGAUCAUUACUGCAUGUGC: 5.2
GCAAAUGUUGGAUUAUAUAUCAAAGGAAAAGCUUAGUUUCAGAGAGGAGGAAGGGAAAGAGAUGUGAGGGAAGCAUUUCAUCAACCAGCUACGUCCCCCUUAGAAGGAUC: 1.66
GAAGGCCUGCUGGGGCUUUCCAUGGCCUUCUGCUGUUUCUCGCCAACACUACCCAGGACUCUUGCUACCUGGUUCCAACUCCAGACAACCACUAUGCCAGGCCCGGAGCC: 0.359
AUGUGCUAAGUUAGGGAUUGGAGGGGCGUGCAUUUACAUGGGAAAGUAAUGCUAAUUAGAAAUCAGUUGGACUUCAACAUUCUCAAGUACUUCCACAAAGCAUCCCUUGG: 1.24
UCCCCCCACCUUUUUUCCCCUUGUCCUUGCAGCUGGAGAUGUGCUGGGAGUAGCAGGCCAGCCUCGGAAAUGGACAUGGGGACCUCGUGGAAGCCACAGCAACCUGGUUG: 0.462
AAAAUAUACAAUCAAGAUAUUUCGUCUCAUAUUAAAAGAGAAAUCUCAAUCACAGUGUUGGCUUUUAUUUGGAUUUUGCUCAUCUCGGUCUUUGUUUGGAAACUCCCUCA: 0.458

A few entries again (sample 2):
GACGGTTTCGGTTCCGGGACGTGCTAG: 10.2 z-score
GACGATCTTAGTTTCGAGACGTGCTAG: 2.5 z-score
GAAGATTTCAGACTGGAGACGTGCTAG: 0.391 z-score
TCACGTATCTTCATTGTACTGTGCTAG: 0.0971 z-score
GACGGTATCGACACTGGTGACGTGCTA: 0.563 z-score
TCATTTTTTTTTTTCTGACTGTGCTAG: 1.44 z-score
TTAGATTTCGGGTTTCGTTTAGTGCTA: 3.73 z-score
